Results gathered from unrelated publications.
Protocols differ between the studies behind these lines. “And” joins repeats or separate records; there may be more than shown. ± marks the error that the study gave.

SMILES	test	test system	conditions	how to read	quantity	result
COC(=O)CCc1ccc(OCC(O)CNC(C)C)cc1 (centres unmarked)		healthy male humans	dose not given, 5 min, added: saline	reference: baseline	heart rate change	2.3 beats/min
O=C1O[C@H]([C@@H](O)CO)C(O)=C1O	superoxide scavenging		80 µM		inhibition	41.7%
Cn1cc(Nc2nccc(-c3ccc4c(c3)CN(C3COC3)CC[C@H]4NC(=O)c3cn(C(C)(C)C)nn3)n2)cn1	refers to: NFAT in immune response	splenic B cells, mice	30 mg/kg, IgD-activated in vivo	reference: vehicle, direction not given	pathway activation z-score	3.9
COc1cc(N2CCC(N3CCN(C)CC3)CC2)ccc1Nc1ncc(Cl)c(Nc2ccccc2P(C)(C)=O)n1		nude mice, NCI-H3122 xenograft	intraperitoneal, 10 mg/kg every other day, day 15		tumour volume	345 mm3 and 275 mm3 and 355 mm3 and 400 mm3 and 195 mm3
C[C@H]1C[C@H]2CSC(N)=N[C@@]2(c2nc(NC(=O)c3ccc(OC(F)F)cn3)cs2)CO1	refers to: total Aβ	healthy adults, plasma	15 mg once daily, day 14	reference: placebo	percent change from baseline	-45%
C[C@H](NC(=O)c1c(C(F)F)nn(C)c1Oc1cccc(C(F)(F)F)c1)c1ccc(C(=O)O)cc1	irRECIST best overall response	patients with advanced tumours	dose not given, all dose groups combined		patients not evaluable or unknown	33.3%
c1ccc(-c2n[nH]cc2-c2ccnc3ccccc23)nc1	kinase binding, competitor, MIB/MS competition, refers to: CKA1	Candida albicans cell lysate	100 nM	reference: DMSO	log2 fold change	1.09
O=C(NO)c1ccc(CN(c2cnccn2)c2cnccn2)cc1		human	200 mg BID		progression-free survival	16.4 months
C[C@@H](O)CCOC(=O)C[C@@H](C)O		human, plasma	60 min, log2-transformed values		metabolite level	4.54 ± 0.25 µmol/L
N#Cc1ccc2c(-c3ccncc3)c(-c3ccc(F)cc3)nn2c1	kinase binding, competitor, MIB/MS competition, refers to: RCK2	Candida albicans cell lysate	1 µM	reference: DMSO	log2 fold change	-0.0131
COc1nnc2ccc(N3CCC(c4ccc(OCCN5CCN(C)C(=O)[C@H]5C)cc4)CC3)nn12		human patients	40 mg once daily, above baseline variability		time above HEXIM1 threshold	7.34 h
C[C@@H](NC(=O)N1C(=O)[C@H](Cc2ccnc(N)c2)[C@H]1C(=O)O)C1CCCCC1		human	iv infusion, 2.25 mg/kg/h, 24 h		ACT AUEC	14000 h·s
Cn1cc(Nc2nc(N)nc(-c3cccc(-n4ccc5cc(C6CC6)cc(F)c5c4=O)c3CO)n2)cn1	CD63 upregulation, anti-IgE-induced	human, multiple ascending dose, whole blood basophils ex vivo	300 mg twice daily, day 14, 1 h		inhibition	94.8%
COc1cc(/C=C/C(=O)CC(=O)/C=C/c2ccc(O)c(OC)c2)ccc1O		rat, high-fat diet hyperlipaemia	oral, 200 mg/kg daily, 4 weeks		final body weight	469 ± 39.3 g
OC(CCN1CCCCC1)(c1ccccc1)C1CC2C=CC1C2 (centres unmarked)	resting-state EEG	healthy elderly humans	oral, 2 mg, eyes closed, LS mean	reference: baseline	delta power change, EEG, in Pz-O1	14.3%
Cc1n[nH]c2ccc(-c3cc(OC[C@@H](N)Cc4ccccc4)cnc3-c3ccoc3)cc12	kinase binding, competitor, MIB/MS competition, refers to: CEK1	Candida albicans cell lysate	1 µM	reference: DMSO	log2 fold change	-0.317
CC(C)c1c(C(=O)Nc2ccccc2)c(-c2ccccc2)c(-c2ccc(F)cc2)n1CC[C@@H](O)C[C@@H](O)CC(=O)O		cynomolgus monkey, female, serum	40 mg/kg or 25 mg/kg, day 86, 2064 h		total cholesterol	86 mg/dL
N#C/C(=C\C1CC1)C(=O)N1CCC[C@@H]1Cn1nc(-c2ccc(Oc3ccccc3)cc2F)c2c(N)ncnc21			10-fold dilution, LC-MS, added: β-mercaptoethanol		dissociation half-life	1.05 ± 0.06 min
COc1ccc(F)cc1C(=O)NCc1ccc(-c2nn([C@@H](C)C(F)(F)F)c(N)c2C(N)=O)cc1		mouse Rec1 xenograft	oral, 10 mg/kg twice daily		tumour growth inhibition	80%
CCN1CCN(Cc2ccc(Nc3ncc(F)c(-c4cc(F)c5nc6n(c5c4)[C@H](C)CCC6)n3)nc2)CC1		human advanced solid tumours	200 mg, phase Ia monotherapy RECIST 1.1		progressive disease	0%
CCN(Cc1nc2c(N)nc3cc(-c4cc[nH]n4)ccc3c2[nH]1)C(C)=O	immunohistochemistry, refers to: MPO+ TANs	patients with advanced solid tumours, injected tumour lesions	dose not given, monotherapy		patients with increased cells	45%
Cc1cnc(N2CC3(CCOCC3)C2)c(C(=O)Nc2ccc(C(=O)N3CCc4cc(C(=O)Nc5c(C)cccc5F)sc4-c4ccccc43)cc2)c1	refers to: Mucin	human RSV infection, nasal wash	dose not given, AUC, ITT-IS population	reference: placebo	inhibition	87%

SMILES	test	test system	conditions	how to read	quantity	result
O=C(OC(C(F)(F)F)C(F)(F)F)N1CCN(Cc2cccc(Oc3ccccc3)c2)CC1	PET blocking study	rhesus monkey, brain occipital cortex	intravenous, 0.01 mg/kg, compound pretreatment, added: [18F]T-401 tracer		volume of distribution	8.8 mL/cm3
C[C@H](Oc1ccc(Br)cc1-c1ccon1)C(=O)O	first response peak	human, tibialis anterior muscle	400 mg, 30 Hz, single ascending dose		difference from placebo	11%
CN[C@@H]1COc2c(S(=O)(=O)NC(=O)Nc3c4c(cc5c3CCC5)CCC4)cnn2C1	refers to: IL-18	human participants, whole blood ex vivo	900 mg twice daily, multiple doses, 152 h, IL-18, circulating, adjusted for, added: LPS/ATP	reference: baseline	inhibition	101%
N=C(N)NCCC[C@@H](NC(=O)CCOCCOCCNC(=O)[C@H](CCCCNC(=O)CC[C@H](NC(=O)c1ccc(NCc2cnc3nc(N)[nH]c(=O)c3n2)cc1)C(=O)O)NC(=O)CO/N=C/[C@H](F)[C@@H](O)[C@H](O)[C@H](O)CO)C(=O)NCC(=O)N[C@H](CC(=O)O)C(N)=O [fluorine-18 labelled]		female nude mice, MDA-MB-231 xenograft, tumour	intravenous, 45 min		tumour uptake	3.3 ± 0.79 %ID/g
CCCOc1ccc(-c2ccc(C#N)cc2)cc1	proteomics	rat placenta	1 µg/mL, middle dose	reference: control	number of downregulated proteins	385
COc1ccccc1[C@H](Cn1c(=O)n(C(C)(C)C(=O)O)c(=O)c2c(C)c(-c3ncco3)sc21)OC1CCOCC1	[1-13C]acetate infusion, isotopomer analysis	overweight or obese healthy men, plasma VLDL-TG palmitate	oral, 200 mg single dose, 1 h post-dose, added: oral fructose		fractional hepatic DNL	6.21 % new palmitate
Cl.O=C(c1cc(Cc2n[nH]c(=O)c3ccccc23)ccc1F)N1CC(CNC2CC2)C1		BALB/c nude mouse, CAPAN-1 xenograft	oral, 50 mg/kg once daily, 28 days		tumour growth inhibition	62.2%
CCc1c(C)nc(-c2ccc(Cl)s2)nc1Nc1ccc(CC(=O)O)cc1		C57BL/6J mouse, high-fat diet MASH model, liver	intraperitoneal, 0.3 mg/kg daily, 60% fat diet for 12 weeks, dosed final four weeks	reference: untreated	PDE4B expression	decreased
C[C@H]1O[C@@H](O[C@H]2CC[C@@]3(C)[C@@H](CC[C@]4(C)[C@@H]3C=C[C@]35OC[C@@]6(CCC(C)(C)C[C@H]63)[C@@H](O)C[C@]54C)[C@]2(C)CO)[C@H](O)[C@@H](O[C@@H]2O[C@H](CO)[C@@H](O)[C@H](O)[C@H]2O)[C@H]1O		chronic-plus-binge ethanol-fed mice, liver	dose not given, low dose	reference: area	Oil Red O area	10.2% and 23.4% and 12.7% and 20.4% and 31.2%
C[C@@H]1COCCN1c1cc([C@]2(O)C[C@H]3CC[C@@H](C2)O3)c2cnn(-c3cc[nH]n3)c2n1		mice, Granta-519 xenograft	25 mg/kg once daily for 5 days, day 14		tumour growth inhibition	84.6 ± 0.97%
O=C(COc1ccc(Cl)cc1)NC12CC(c3nnc([C@H]4C[C@@H](OC(F)(F)F)C4)o3)(C1)C2	refers to: CHAC1	PBMC ex vivo stimulated, human ALS patients	200 mg, D21 predose	reference: baseline	mRNA level change	-80.5%
O=C(O)CNC(=O)C(CS)Cc1ccccc1 (centres unmarked)	inhibitor, LC-MS/MS, refers to: Met- or Leu-enkephalin	mouse striatal brain slices	10 µM, 20 min, added: 50 mM KCl		extracellular enkephalin concentration	1050 pM and 861 pM and 667 pM and 983 pM and 100 pM and 1830 pM and 490 pM
COc1ccc2c(c1)CC[C@@H]1[C@@H]2CC[C@]2(C)[C@@H](NCCCCCCN3C(=O)C=CC3=O)CC[C@@H]12	immunostaining	humanized mouse, SAH model, meninges	dose not given		p-PKC level	5.71 MFI and 8.23 MFI and 12.8 MFI
CSCCNc1nc(SCCC(F)(F)F)nc2c1ncn2[C@@H]1O[C@H](COP(=O)(O)OP(=O)(O)C(Cl)(Cl)P(=O)(O)O)[C@@H](O)[C@H]1O	light transmittance aggregometry	human patients, platelet-rich plasma	dose not given, 2 h, added: ADP 20 µM	reference: patients	patients with IPA above 80%	7.5%
CC(C)[C@H](C(=O)Nc1ccc(C(=O)NO)cc1)c1ccccc1	volumetric MRI	human, left cistern meningioma	dose not given, day 23	reference: baseline	tumour volume change	-8.7%
CC(C)n1c(C2CCNCC2)nc2c([N+](=O)[O-])c(Br)c(Br)cc21	refers to: blasts	AML patients IDH mutated, bone marrow	dose not given, ≥50% reduction from baseline		patients with blast reduction	37%
NCC(=O)Nc1cncc(-c2nn3c(=O)cc(N4CCNCC4)nc3s2)c1	ADP-induced platelet aggregation, light transmission aggregometry	human, stable CAD on aspirin, ex vivo platelets	subcutaneous, 0.04 mg/kg, 5 min post-dose, median value, added: ADP 20 µM		inhibition	20.5%
NC(=O)c1cnc2[nH]ccc2c1N[C@@H]1[C@@H]2CC3C[C@H]1C[C@@](O)(C3)C2	CD4+ memory T cells, flow cytometry	Caucasian humans, peripheral blood	20 mg single dose	reference: baseline	percent change	-1.27%
CC(C)NCC(O)c1ccc(O)c(O)c1 (centres unmarked)		ventricular cardiomyocytes, C57BL/6 mouse	dose not given, 0.536 s		sarcomere length	1.49 µm
O=C(NC[C@H]1CN(c2ccc(N3CCOCC3=O)cc2)C(=O)O1)c1ccc(Cl)s1		human mild renal impairment, plasma	10 mg, mean, unit not given	reference: baseline	prothrombin time AUC(0-48h)	95.8
O=C(O)CNC(=O)Cc1ccccc1		ventricular cardiomyocytes, C57BL/6 mouse	dose not given, 0.332 s		sarcomere length	1.72 µm
CC[C@H](C)[C@H](NC(=O)[C@H](C)NC(=O)CNC(=O)[C@H](Cc1ccccc1)NC(=O)[C@H](CC(N)=O)NC(=O)[C@H](CC(N)=O)NC(=O)[C@H](CO)NC(=O)[C@H](CO)NC(=O)[C@H](Cc1c[nH]cn1)NC(=O)[C@@H](NC(=O)[C@H](CC(C)C)NC(=O)[C@H](Cc1ccccc1)NC(=O)[C@H](CC(N)=O)NC(=O)[C@H](C)NC(=O)[C@H](CC(C)C)NC(=O)[C@H](CCCNC(=N)N)NC(=O)[C@H](CCC(N)=O)NC(=O)[C@@H](NC(=O)[C@H](C)NC(=O)[C@@H]1CSSC[C@H](NC(=O)[C@@H](N)CCCCN)C(=O)N[C@@H](CC(N)=O)C(=O)N[C@@H]([C@@H](C)O)C(=O)N[C@@H](C)C(=O)N[C@@H]([C@@H](C)O)C(=O)N1)[C@@H](C)O)C(C)C)C(=O)N[C@@H](CC(C)C)C(=O)N[C@@H](CO)C(=O)N[C@@H](CO)C(=O)N[C@H](C(=O)N[C@@H](CC(N)=O)C(=O)N[C@H](C(=O)NCC(=O)N[C@@H](CO)C(=O)N[C@@H](CC(N)=O)C(=O)N[C@H](C(=O)N[C@@H](Cc1ccc(O)cc1)C(N)=O)[C@@H](C)O)C(C)C)[C@@H](C)O	live/dead staining	isolated mouse islets	10 µM, 24 h		viability	60.4% and 56.8%

Repeated from above:
SMILES	test	test system	conditions	how to read	quantity	result
C[C@H](Oc1ccc(Br)cc1-c1ccon1)C(=O)O	first response peak	human, tibialis anterior muscle	400 mg, 30 Hz, single ascending dose		difference from placebo	11%
CN[C@@H]1COc2c(S(=O)(=O)NC(=O)Nc3c4c(cc5c3CCC5)CCC4)cnn2C1	refers to: IL-18	human participants, whole blood ex vivo	900 mg twice daily, multiple doses, 152 h, IL-18, circulating, adjusted for, added: LPS/ATP	reference: baseline	inhibition	101%
N=C(N)NCCC[C@@H](NC(=O)CCOCCOCCNC(=O)[C@H](CCCCNC(=O)CC[C@H](NC(=O)c1ccc(NCc2cnc3nc(N)[nH]c(=O)c3n2)cc1)C(=O)O)NC(=O)CO/N=C/[C@H](F)[C@@H](O)[C@H](O)[C@H](O)CO)C(=O)NCC(=O)N[C@H](CC(=O)O)C(N)=O [fluorine-18 labelled]		female nude mice, MDA-MB-231 xenograft, tumour	intravenous, 45 min		tumour uptake	3.3 ± 0.79 %ID/g
CCCOc1ccc(-c2ccc(C#N)cc2)cc1	proteomics	rat placenta	1 µg/mL, middle dose	reference: control	number of downregulated proteins	385
COc1ccccc1[C@H](Cn1c(=O)n(C(C)(C)C(=O)O)c(=O)c2c(C)c(-c3ncco3)sc21)OC1CCOCC1	[1-13C]acetate infusion, isotopomer analysis	overweight or obese healthy men, plasma VLDL-TG palmitate	oral, 200 mg single dose, 1 h post-dose, added: oral fructose		fractional hepatic DNL	6.21 % new palmitate
